Published values gathered from unrelated publications.
Each line is one published result; not all experiments were run side by side.
Organism: Staphylococcus aureus

Compound	test	test system	setting	MIC
COc1cc(C(=O)O)ccc1NC(=O)c1ccc(NC(=O)c2ccc(NC(=O)[C@H](Cc3c[nH]nn3)NC(=O)c3ccc(NC(=O)/C(C)=C/c4ccc(O)cc4)cc3)cc2)cc1	broth microdilution	ciprofloxacin-sensitive		32 µg/mL
CC[C@H]1OC(=O)[C@H](C)[C@@H](OC(=O)Cc2ccc(N)cc2)[C@H](C)[C@@H](O[C@@H]2O[C@H](C)C[C@H](N(C)C)[C@H]2O)[C@](C)(OC)C[C@@H](C)C(=O)[C@H](C)[C@@H](O)[C@]1(C)O	microbial growth	BAA976		16 µg/mL
CCCC/C=C/C(=O)N[C@@H](Cc1cc(F)cc(F)c1)C(=O)N[C@H]1COC(=O)[C@@H]2CCCN2C(=O)[C@H](C)NC(=O)[C@@H]2C[C@@H](C)CCN2C(=O)[C@@H]2CCCN2C1=O	microbial growth, broth dilution			0.39 µg/mL
CC[C@H](C)[C@H](NC(=O)[C@H](CCC(N)=O)NC(=O)[C@H](Cc1ccccc1)NC(=O)[C@H](CC(N)=O)NC(=O)[C@H](CCCCN)NC(=O)[C@H](CC(C)C)NC(=O)[C@H](CCCNC(=N)N)NC(=O)[C@H](CCCCN)NC(=O)[C@H](CCCCN)NC(=O)[C@@H](NC(=O)[C@H](CO)NC(=O)[C@H](CCCCN)NC(=O)CNC(=O)[C@H](CC(C)C)NC(=O)[C@H](CCCCN)NC(=O)[C@H](CCCCN)NC(=O)[C@H](CC(C)C)NC(=O)[C@H](CCCCN)NC(=O)[C@H](CCCCN)NC(=O)[C@H](CCCNC(=N)N)NC(=O)[C@H](CC(C)C)NC(=O)CNC(=O)[C@@H](N)CCCNC(=N)N)[C@@H](C)CC)C(=O)NCC(=O)N[C@@H](Cc1ccccc1)C(=O)N[C@@H](CO)C(=O)N[C@H](C(=O)N1CCC[C@H]1C(=O)N[C@@H](Cc1ccccc1)C(=O)N[C@@H](C)C(=O)NCC(=O)O)C(C)C	broth microdilution	ATCC 29213	16 h, 37 °C, cation-adjusted Mueller-Hinton broth	128 µg/mL
CCCCCCCC[N+](C)(C)CCCCCCCCOc1cc(OCCCCCCCC[N+](C)(C)CCCCCCCC)cc(OCCCCCCCC[N+](C)(C)CCCCCCCC)c1.[Br-].[Br-].[Br-]		CA-MRSA USA300-0114		1 µM
CC1C=CC=CC(C)C2C=CC3CC(C)(O)C(Cl)C(C)C3C2C(=O)C(Cl)(Cl)C(=O)C(C)C(=O)O1 (centres unmarked)		MRSA clinical isolate	resistant: OXA	0.1 µg/mL
CN[C@H](CC(C)C)C(=O)N[C@H]1C(=O)N[C@@H](CC(N)=O)C(=O)N[C@H]2C(=O)N[C@H]3C(=O)N[C@H](C(=O)N[C@H](C(=O)O)c4cc(O)cc(O)c4-c4cc3ccc4O)[C@H](O)c3ccc(c(Cl)c3)Oc3cc2cc(c3O[C@@H]2O[C@H](CO)[C@@H](O)[C@H](O)[C@H]2O[C@H]2C[C@](C)(NCc3ccc(OCc4cn(CCCCC(=O)N[C@H](C(=O)N[C@@H](CCN)C(=O)N[C@H]5CCNC(=O)[C@H]([C@@H](C)O)NC(=O)[C@H](CCN)NC(=O)[C@H](CCN)NC(=O)[C@H](CC(C)C)NC(=O)[C@@H](CC(C)C)NC(=O)[C@H](CCN)NC5=O)[C@@H](C)O)nn4)c(OC)c3)[C@H](O)[C@H](C)O2)Oc2ccc(cc2Cl)[C@H]1O	broth microdilution	MSSA ATCC 29213, cation-adjusted Mueller-Hinton broth	20 to 24 h, 37 °C, 0.002% polysorbate 80	0.25 µg/mL
CCCCCCn1cc[n+](CCCCCCCCCCOc2cc(OCCCCCCCCCC[n+]3ccn(CCCCCC)c3)cc(OCCCCCCCCCC[n+]3ccn(CCCCCC)c3)c2)c1.[Br-].[Br-].[Br-]		HA-MRSA ATCC 33591		8 µM
CCCCCCCCCC(=O)Oc1c(C)c(OC)c2c(/C=C/c3ccccc3)c(CCCCCCCC)c(=O)oc2c1C	microbial growth, broth dilution	ATCC25923		5000 µg/mL
COc1cc(C(=O)Nc2ccc(C(=O)O)c(O)c2OC)ccc1NC(=O)c1ccc(NC(=O)[C@H](Cc2c[nH]nn2)NC(=O)c2ccc(NC(=O)/C(C)=C/c3ccc(O)cc3)cc2)cc1	broth microdilution	ciprofloxacin-sensitive		4 µg/mL
C=C/C=C(\C)CC[C@@H](O)C[C@H](O)CC(=O)OC	microbial growth, broth dilution	ATCC6538P		256 µg/mL
CCCCCC[N+](C)(C)CCCCOc1cc(OCCCC[N+](C)(C)CCCCCC)cc(OCCCC[N+](C)(C)CCCCCC)c1.[Br-].[Br-].[Br-]		CA-MRSA USA300-0114		63 µM
CC[C@H]1OC(=O)[C@H](C)[C@@H](OC(=O)Cc2ccc(OC(F)(F)F)cc2)[C@H](C)[C@@H](O[C@@H]2O[C@H](C)C[C@H](N(C)C)[C@H]2O)[C@](C)(OC)C[C@@H](C)C(=O)[C@H](C)[C@@H](O)[C@]1(C)O		BAA-977		16 µg/mL
COc1c(NC(=O)c2ccc(NC(=O)c3ccc(NC(=O)[C@H](Cc4c[nH]nn4)NC(=O)c4ccc(NC(=O)/C(C)=C/c5ccc(O)cc5)cc4)cc3)cc2)ccc(C(=O)O)c1O	broth microdilution	ciprofloxacin-sensitive		8 µg/mL
CC[C@H]1OC(=O)[C@H](C)[C@@H](OC(=O)Cc2ccccc2Cl)[C@H](C)[C@@H](O[C@@H]2O[C@H](C)C[C@H](N(C)C)[C@H]2O)[C@](C)(OC)C[C@@H](C)C(=O)[C@H](C)[C@@H](O)[C@]1(C)O		DSM 20231 MSSA		4 µg/mL
N=C(N)NCCC[C@@H]1NC(=O)[C@H](CCCNC(=N)N)NC(=O)[C@@H](CCCNC(=N)N)NC(=O)[C@H](C(c2ccccc2)c2ccccc2)NC(=O)[C@H](C(c2ccccc2)c2ccccc2)NC(=O)[C@H](C(c2ccccc2)c2ccccc2)NC(=O)[C@H](CCCNC(=N)N)NC1=O		ATCC 29213, MSSA		4 µg/mL
CCCCCCn1cc[n+](CCCCCCCCOc2cc(OCCCCCCCC[n+]3ccn(CCCCCC)c3)cc(OCCCCCCCC[n+]3ccn(CCCCCC)c3)c2)c1.[Br-].[Br-].[Br-]		CA-MRSA USA300-0114		1 µM
CC[C@H]1OC(=O)[C@H](C)[C@@H](OC(=O)Cc2ccc([N+](=O)[O-])cc2)[C@H](C)[C@@H](O[C@@H]2O[C@H](C)C[C@H](N(C)C)[C@H]2O)[C@](C)(OC)C[C@@H](C)C(=O)[C@H](C)[C@@H](O)[C@]1(C)O		ATCC 43300 MRSA		> 128 µg/mL
COc1cc2c(cc1OC)C1Cc3ccc(OC)c(OC)c3C[NH+]1CC2.[Cl][Fe-]([Cl])([Cl])[Cl] (centres unmarked)			24 h, 37 °C	> 1600 µM
CCCCCCCCn1cc[n+](CCCCCCCCOc2cc(OCCCCCCCC[n+]3ccn(CCCCCCCC)c3)cc(OCCCCCCCC[n+]3ccn(CCCCCCCC)c3)c2)c1.[Br-].[Br-].[Br-]		HA-MRSA ATCC 33591		2 µM
CC[C@H]1OC(=O)[C@H](C)[C@@H](OC(=O)Cc2ccc(OC)cc2)[C@H](C)[C@@H](O[C@@H]2O[C@H](C)C[C@H](N(C)C)[C@H]2O)[C@](C)(OC)C[C@@H](C)C(=O)[C@H](C)[C@@H](O)[C@]1(C)O		ATCC 43300 MRSA		> 64 µg/mL
CCCCCCCCCC[N+](C)(C)CCCCCCCCOc1cc(OCCCCCCCC[N+](C)(C)CCCCCCCCCC)cc(OCCCCCCCC[N+](C)(C)CCCCCCCCCC)c1.[Br-].[Br-].[Br-]		SH1000 MSSA		2 µM
CC(C)C[C@@H]1NC(=O)[C@@H](CC(C)C)NC(=O)[C@H](CCN)NC(=O)[C@@H](NC(=O)[C@H](CCN)NC(=O)[C@@H](N)[C@@H](C)O)CCNC(=O)[C@H]([C@@H](C)O)NC(=O)[C@H](CCN)NC(=O)[C@H](CCN)NC1=O	broth microdilution	MSSA ATCC 29213, cation-adjusted Mueller-Hinton broth	20 to 24 h, 37 °C, 0.002% polysorbate 80	> 128 µg/mL

Repeated from above:
Compound	test	test system	setting	MIC
COc1c(NC(=O)c2ccc(NC(=O)c3ccc(NC(=O)[C@H](Cc4c[nH]nn4)NC(=O)c4ccc(NC(=O)/C(C)=C/c5ccc(O)cc5)cc4)cc3)cc2)ccc(C(=O)O)c1O	broth microdilution	ciprofloxacin-sensitive		8 µg/mL
CCCCCCn1cc[n+](CCCCCCCCOc2cc(OCCCCCCCC[n+]3ccn(CCCCCC)c3)cc(OCCCCCCCC[n+]3ccn(CCCCCC)c3)c2)c1.[Br-].[Br-].[Br-]		CA-MRSA USA300-0114		1 µM
CC1C=CC=CC(C)C2C=CC3CC(C)(O)C(Cl)C(C)C3C2C(=O)C(Cl)(Cl)C(=O)C(C)C(=O)O1 (centres unmarked)		MRSA clinical isolate	resistant: OXA	0.1 µg/mL
